Results gathered from unrelated publications.
Parts stem from different laboratories: compare values within a part only. Substitutions count along the parent as printed.

Set 1
Target: Interferon regulatory factor 5, full length, phosphomimetic (IRF5, Homo sapiens, UniProt Q13568-2, residues 1-514, K96S/S451D/S453D/S456D/S462D)
Technique: protein-binding microarray
Molecule type: double-stranded DNA, one strand shown
Medium: in vitro
Tested at: 250 nM
Notes: 60-bp whole probe
Together with: salmon DNA 0.4 mg/ml
Relative to: random background probes
Direction: higher = stronger binding
All sequences stand within: GCCTAGCAC … GTCTTGATTCGCTTGACGCTGCTG
Oligonucleotide	log fluorescence [z-score]
CATTTTCTAAATTCCCTAGTGTGCTAG	1.24
AGCAGTTGGACCTCTCAGCCAGTGCTA	-0.785
TGTGGGTTTCGGTGTGGGAGGTGCTAG	8.57
TCACACATGCATCTCCCACTGTGCTAG	0.138
GACGGACTGGACTTTCGTGACGTGCTA	1.12
GACGGTATCGGTTACGGGACGTGCTAG	6.57
TCATTGTTCTCTCTGGCACTGTGCTAG	0.406
TCATAACTCATTCTCTGACTGTGCTAG	0.464
TTAGATTCCAGACTGGATTAGTGCTAG	-0.0724
GACGGACTGGGGTATCGGCACGTGCTA	-0.186
CCCTGTGTCCACAGCTGGATGTGCTAG	-0.548
GACCAACTGAGTATCGAGACGTGCTAG	1.53
TCATTTCTCTTTCACTGACTGTGCTAG	5.73
TCAATTTTAGTTTTCATACTGTGCTAG	1.87
GACCGACTGGGGACTGGGGACGTGCTA	-0.396
TTAGGTTTCGGGTTTGGGTTAGTGCTA	7.74

Set 2
Target: Histone acetyltransferase KAT6A, both winged helices, GST fusion (KAT6A, Homo sapiens, UniProt Q92794, residues 1-181)
Technique: protein binding microarray
Molecule type: double-stranded DNA, one strand shown
Medium: in vitro
Tested at: not given
Notes: 8-mer, flanks averaged, mean of 2 arrays, mostly near background
Relative to: not given
Direction: higher = stronger binding
Construct (chain): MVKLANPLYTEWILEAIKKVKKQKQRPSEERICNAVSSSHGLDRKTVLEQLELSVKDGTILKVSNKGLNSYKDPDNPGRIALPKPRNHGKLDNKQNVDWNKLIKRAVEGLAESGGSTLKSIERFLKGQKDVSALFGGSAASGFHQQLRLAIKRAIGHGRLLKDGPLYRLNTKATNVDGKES
Oligonucleotide	E-score
CATCAGCA	-0.101
AGTTGGAT	-0.179
CCATATTA	-0.0402
CCACTGCG	0.146
CAAAACTC	-0.0217
TTGCAAAA	-0.219
GGAGCAAC	-0.0063
GGAATCAA	0.0966
CAAGCACC	-0.153
GTTACCTA	-0.234
ACTGTATG	-0.0457
CTCCCCGC	0.243
ATTGACCC	-0.0169
CTATTAGA	-0.0617
AGTGTCCC	-0.0314
AGCGATAT	-0.0414
CGGTTGCC	0.155

Set 3
Target: ABI1, truncated, D143A, DHFR fusion (Arabidopsis thaliana)
Technique: DHFR PCA, deep sequencing
Medium: yeast
Notes: methotrexate growth selection, single substitutions
Together with: (+)-ABA 2500 µM
Relative to: wild-type fitted maximum
Direction: higher = stronger binding
Starting sequence: PYL1, truncated, DHFR fusion (Arabidopsis thaliana); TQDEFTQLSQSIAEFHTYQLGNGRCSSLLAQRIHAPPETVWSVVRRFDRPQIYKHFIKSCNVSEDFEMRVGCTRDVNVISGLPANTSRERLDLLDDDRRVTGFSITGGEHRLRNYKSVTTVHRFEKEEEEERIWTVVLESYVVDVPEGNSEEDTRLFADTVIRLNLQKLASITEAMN
Substitution	relative binding score [%]
V100K	64.2
Q10M	92.6
L29Y	75.7
S117P	23.3
M68G	87.1
L28E	46.1
V70K	84.6
L169W	-12.2
S80W	78.5
T154N	25.7
S9M	95.1
D153G	65
V145C	92.9
A170G	94.6
P37K	76.3
E147R	93.8
D97T	103
T1H	105
N85L	95.3
E67Y	92.3
D65F	94.7

Set 4
Target: Ras GTPase-activating protein-binding protein 1, full length (G3BP1, Homo sapiens, UniProt Q13283)
Sequence of UniProt Q13283 (whole entry, looked up): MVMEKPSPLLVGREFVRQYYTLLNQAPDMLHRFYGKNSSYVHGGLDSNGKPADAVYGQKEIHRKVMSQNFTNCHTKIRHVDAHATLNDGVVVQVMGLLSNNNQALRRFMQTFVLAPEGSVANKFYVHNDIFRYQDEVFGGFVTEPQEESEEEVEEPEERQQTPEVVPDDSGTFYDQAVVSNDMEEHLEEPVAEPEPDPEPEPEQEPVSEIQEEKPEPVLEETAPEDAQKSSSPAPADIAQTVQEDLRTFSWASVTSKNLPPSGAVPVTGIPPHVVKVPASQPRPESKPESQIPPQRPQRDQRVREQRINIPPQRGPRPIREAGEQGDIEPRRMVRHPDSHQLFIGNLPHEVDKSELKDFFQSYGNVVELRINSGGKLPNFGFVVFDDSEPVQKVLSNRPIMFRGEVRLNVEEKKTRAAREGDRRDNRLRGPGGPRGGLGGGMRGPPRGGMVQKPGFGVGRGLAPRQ
Technique: RNA Bind-n-Seq
Molecule type: RNA
Medium: in vitro
Tested at: 200 nM
Notes: whole 134-nt RNA, ends assumed
Together with: 150 mM LiCl
Relative to: input library
Direction: higher = stronger binding
All molecules: 7-deaza-guanosine replaces G
Oligonucleotide	log2 enrichment
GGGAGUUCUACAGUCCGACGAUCAAGUCCUGUGCUACACAUCGUAUGUACCGAAUCGGGGUGGGGUUUUUGGGGUGGGGAAAGUAUUAUGUUACGCCGUUCGGAUCUGCACUUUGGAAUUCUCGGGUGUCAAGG	0.121
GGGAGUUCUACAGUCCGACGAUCUUAGGGUCAUGUGAAGGUGGUGCGCUACUUAGUCAAAGAAGUCAAUCAGUUUCCAUCAGAUUCUGAAUGUAUGAGAUACAUAGCAACCAUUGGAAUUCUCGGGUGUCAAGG	-2.1
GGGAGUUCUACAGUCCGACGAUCAAGUCCUGUGCUACACAUCGUAUGUACCGAAUCGGGGCCCCGGCCCCGGCCCCGGGAAAGUAUUAUGUUACGCCGUUCGGAUCUGCACUUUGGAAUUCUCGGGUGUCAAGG	-1.83
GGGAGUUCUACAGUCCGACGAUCUUGAGAUUGGGUGGAUUCCUAUCAUCUGGAAUUCUGACUCCUCGGGUCUCCUUCUCUAGGUAGCCCAGCAGCAGUGAAGAUGCAGACUGAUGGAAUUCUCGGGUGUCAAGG	-1.62
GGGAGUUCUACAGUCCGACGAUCCCUGUGCUACACAUCGUAUGUACCGAAUCGGCCCCCCCGGCCCCCCCGGGCCCCCCCGGGGAAAGUAUUAUGUUACGCCGUUCGGAUCUGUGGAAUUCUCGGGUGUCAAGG	0.252
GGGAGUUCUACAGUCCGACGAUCCUGUGCUACACAUCGUAUGUACCGAAUCGGGGAAAAAAAGGGGAAAAAAAGGAAAAAAAGGAAAGUAUUAUGUUACGCCGUUCGGAUCUGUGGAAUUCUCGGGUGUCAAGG	0.165
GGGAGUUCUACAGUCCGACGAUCUAACUUUAGAGGAGGAUCUGAUGGAUAUGGCAGUGGACGUGGAUUUGGGGAUGGCUAUAAUGGGUAUGGAGGAGGACCUGGAGCUGGCAAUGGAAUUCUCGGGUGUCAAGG	-0.107
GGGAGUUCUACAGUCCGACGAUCCACAGACAACACGCACCCACACAGACACAGAGGGAAGGGGUUGGGAUGGGGACAGGGUGCACAGCAGGGCGGGGUAGGACCCCAGCCGCUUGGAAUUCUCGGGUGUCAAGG	-0.903
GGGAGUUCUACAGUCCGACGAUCUAACUUUAGAGGUGGAUCUGAUGGAUAUGGCAGUGGACGUGGAUUUGGGGAUGGCUAUAAUGGGUAUGGAGGAGGACCUGGAGGUGGCAAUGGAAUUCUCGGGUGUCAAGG	0.161
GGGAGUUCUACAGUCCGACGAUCGUCCUGUGCUACACAUCGUAUGUACCGAAUCGGGGAAAGGGGAGGGGUUUUUUUGGGGAAAGUAUUAUGUUACGCCGUUCGGAUCUGCACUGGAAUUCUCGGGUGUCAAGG	0.548
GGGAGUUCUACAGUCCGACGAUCCCUCAAGUCCUGUGCUACACAUCGUAUGUACCGAAUCGGGAGGGGAGGGAGGGAAAGUAUUAUGUUACGCCGUUCGGAUCUGCACUUCCAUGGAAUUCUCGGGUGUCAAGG	0.301

Set 5
Target: RING finger protein unkempt homolog, zinc fingers 1-6, GST-SBP tag (UNK, Homo sapiens, UniProt Q9C0B0, residues 30-357)
Sequence of UniProt Q9C0B0 (30-357, looked up): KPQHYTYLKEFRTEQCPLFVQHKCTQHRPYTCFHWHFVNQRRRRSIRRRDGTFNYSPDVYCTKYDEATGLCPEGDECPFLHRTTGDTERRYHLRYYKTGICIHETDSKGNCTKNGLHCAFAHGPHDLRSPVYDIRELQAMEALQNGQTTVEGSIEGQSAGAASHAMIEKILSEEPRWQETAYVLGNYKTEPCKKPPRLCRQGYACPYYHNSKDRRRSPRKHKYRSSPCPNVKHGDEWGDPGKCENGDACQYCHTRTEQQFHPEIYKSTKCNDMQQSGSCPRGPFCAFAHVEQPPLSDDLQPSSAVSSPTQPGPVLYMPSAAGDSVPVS
Technique: RNA Bind-n-Seq
Molecule type: RNA
Medium: in vitro
Tested at: not given
Notes: RNA with constant flanks, human and mouse sites, ends assumed
Relative to: input RNA pool
Direction: higher = stronger binding
Oligonucleotide	bound/input enrichment
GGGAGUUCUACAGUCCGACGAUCGAUAGAAAAUACCACCUAAAGACAUACAGACAAUGCUGUGUGGGAACUGAACUGGUGGACUGGAUGAUGCAGCAGACACCAUGUGUUCACUCCCGGACUCAAGCUGUUGGCAUGUGGCAACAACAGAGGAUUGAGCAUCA	0.363 ratio
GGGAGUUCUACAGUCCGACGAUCUAUCCAAAAAGAUUGUAUACAAAAACUAACAAACAGAAAAGUGAACUUUGUAAAUGUAUAGAAACAGUUCAUCAAGAUUCAUGUAAUGCCUGCUUUCCUCAGCAGGACCAGAGGAAUUCCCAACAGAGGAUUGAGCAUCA	0.25 ratio
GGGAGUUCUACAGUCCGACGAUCGAAUUGAUUAAGGAAAAACUUAUUCUUCCCUAUGUGGAACUGGAUCUGCAUAGCUAUGAUUUAGGCAUAGAGAAUCGUGAUGCCACCAAUGACCAGGUCACCAAAGAUGCUGCAGAGGCUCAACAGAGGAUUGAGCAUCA	0.505 ratio
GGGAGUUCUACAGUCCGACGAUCCCGACCCCGGCCGCGCCCAGCCCCCACCAUGCCACCCGCGGGGCUCCGCCGGGCCGCGCCGCUCACCGCAAUCGCUCUGUUGGUGCUGGGGGCUCCCCUGGUGCUGGCCGGCGAGGACUGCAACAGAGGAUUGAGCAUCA	0.661 ratio
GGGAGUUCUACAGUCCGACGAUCCGUUCUCUGCCACCUCCUUCCCCUGCCCACUUGGCUGCUUUAAGUGUUGCAGUCAUUGAAUUAGCAAAAGAACAUGGAAUAACAGAUGAUGACCUCAGAGUCCGUCAGGAAAUUGUGGAGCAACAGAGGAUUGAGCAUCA	1.16 ratio
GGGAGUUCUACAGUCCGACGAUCAUAUGCCUGUGGCUGCUGGACACAUACCCAUAUAACCCCCCUAUCUGUUUUGUUAAGCCUACUAGUUCAAUGACUAUUAAAACAGGAAAGCAUGUGGAUGCAAAUGGGAAAAUCUACCUACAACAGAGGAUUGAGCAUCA	0.234 ratio
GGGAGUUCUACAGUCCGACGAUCCGUGGUCGGAUGUCCAUGAAGGAGGUCGAUGAGCAGAUGCUUAACGUGCAGAACAAGAACAGCAGCUACUUUGUGGAAUGGAUCCCCAACAAUGUCAAGACAGCCGUCUGUGACAUCCCACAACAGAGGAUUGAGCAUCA	0.0692 ratio
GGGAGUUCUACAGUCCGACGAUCGAGACCUUUUCCAGUUAUAUCAGUGUUCACAAUGACAGCAAUCAAGUUGUAAAAGAUAUAUUGGUGAAGGCGGAUCUGCAGACGAGUUCUCAGCGUUUAAACCUUUCAGCCUCCAAUGCUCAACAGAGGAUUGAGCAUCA	0.226 ratio
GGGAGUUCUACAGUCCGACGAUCAAAAUUAAGCCUCAGCAUUCUGUAUCGAAAAGAAUUAUUAUCUUUUCCUCCUGUCUUUUGUAAUAACUUCAGAUUUUAUUAAUUCAAAUGGCUUGGUCUUCCUGUUUUGUAAUCAUGACUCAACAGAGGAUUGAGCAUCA	1.19 ratio
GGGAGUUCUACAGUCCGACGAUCUUGUCACCUGCUUUCCACCAAGCACUACUCUCUUUUUGUCGAAUGUCAGCAGAUAGUCGGUUAGGAUCAGAGGUGUCUAGGAUUGCAGACAGUGAAAAAAGUGUUAUGUUAAUGCUGGGACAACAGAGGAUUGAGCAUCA	0.155 ratio
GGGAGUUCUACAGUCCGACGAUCUGACUGUUAUGAUUAUCAGAAUGUCUUAACUUUUUAGGGCAAAGUUAACACUGAAAGUUCUAGCUUAAGUGUUGAAACUUUUGUGGGAAAAAAAAAUCACUUUUGAAACUCAGACUUCAGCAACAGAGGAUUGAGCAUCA	0.16 ratio

Some of these lines once more (set 2):
Oligonucleotide	E-score
CAAAACTC	-0.0217
TTGCAAAA	-0.219
GGAGCAAC	-0.0063
GGAATCAA	0.0966
